Measured values of several laboratories.
± marks the error that the study gave.
Nuclear receptor subfamily 2 group C member 2 ligand-binding domain: Nuclear receptor subfamily 2 group C member 2, ligand-binding domain (Homo sapiens, UniProt P49116)
YWHAG/RELA phospho-Ser45 p65 peptide: YWHAG/RELA, phospho-Ser45 p65 peptide (Homo sapiens, UniProt P61981+Q04206)

CC[C@H](C)n1cc(C)c2c(C(=O)NCc3c(C)cc(C)[nH]c3=O)cc(-c3ccc(N4CCNCC4)nc3)cc21
viability (OCI-Ly1; 0.1 µM, 120 h): 195%

CC[C@@H]1[C@H](F)C(=O)N[C@@H]1COc1nccc2cc(C(N)=O)c(OC)cc12
IC50 (5'-AMP-activated protein kinase catalytic subunit alpha-1 (PRKAA1, Homo sapiens, UniProt Q13131); ATP-site binding, ActivX kinase profiling; THP-1 cell lysate; AMPKa1 ATP-loop probe peptide): > 5 µM

OCC(CO)N[C@H]1C[C@](O)(CO)[C@@H](O)[C@H](O)[C@H]1O
Kd (Nuclear receptor subfamily 2 group C member 2 ligand-binding domain; SPR imaging): 0.0824 nM

Cc1ncsc1-c1ccc([C@H](CC(=O)N2CCN(c3ccc(C#Cc4ccc(C(=O)N5CCC(n6cc(-c7ccc8c(c7)CCN8C(=O)Cc7cccc(OC(F)(F)F)c7)c7c(N)ncnc76)CC5)cc4)cn3)CC2)NC(=O)[C@@H]2C[C@@H](O)CN2C(=O)[C@@H](NC(=O)C2(F)CC2)C(C)(C)C)cc1
DC50 (Receptor-interacting serine/threonine-protein kinase 1 (RIPK1, Homo sapiens, UniProt Q13546); degrader, western blot; Jurkat; 24 h): 0.0026 µM

Cc1cc(Oc2ncccc2CN2CCN(c3ccccc3Cl)CC2)ccc1-c1c(C)c(=O)[nH]c(=O)n1C
Ki (Alpha-2A adrenergic receptor (ADRA2A, Homo sapiens, UniProt P08913); inhibitor, radioligand binding; with: [3H]rauwolscine): 0.0795 µM

CN(C)C1CCN(c2cc(C=O)ccc2[N+](=O)[O-])CC1
EC50 (YWHAG/RELA phospho-Ser45 p65 peptide; ternary complex formation, stabilizer, fluorescence anisotropy): > 1000 µM

CCOc1ccc2ccccc2c1C(=O)N[C@@H]1C(=O)N2[C@@H]1SC(C)(C)[C@@H]2C(=O)O
Kd (Nuclear receptor subfamily 2 group C member 2 ligand-binding domain; SPR imaging): 0.303 nM

Cc1[nH]c2ccccc2c1CCNCc1ccc(/C=C/C(=O)NO)cc1
viability (OCI-Ly1; 0.5 µM, 120 h): 0.53%

O=Cc1ccc([N+](=O)[O-])c(N2CCC(CCO)CC2)c1
EC50 (YWHAG/RELA phospho-Ser45 p65 peptide; ternary complex formation, stabilizer, fluorescence anisotropy): > 1000 µM

O=C(COP(=O)(O)O)[C@@H](O)[C@H](O)[C@H](O)COP(=O)(O)O
AC50 (Pyruvate kinase PKM (PKM, Homo sapiens, UniProt P14618); enzyme activity, activator; HeLa cell lysate; with: 0.2 mM PEP, 2 mM ADP): 0.0381 ± 0.0031 µM

Cc1cc(C(=O)Oc2cc(C=O)ccc2[N+](=O)[O-])c(C)o1
EC50 (YWHAG/RELA phospho-Ser45 p65 peptide; ternary complex formation, stabilizer, fluorescence anisotropy): > 1000 µM

O=c1n(CCCN2CCN(c3cccc(Cl)c3)CC2)nc2ccccn12
Ki (Substance-K receptor (TACR2, Homo sapiens, UniProt P21452)): > 10 µM

O=Cc1ccc(C(=O)NCC2CCOCC2)cc1
EC50 (YWHAG/RELA phospho-Ser45 p65 peptide; ternary complex formation, stabilizer, fluorescence anisotropy): > 1000 µM

OC[C@H]1OC(O)[C@H](O)[C@@H](O)[C@@H]1O (some centres unmarked)
Ki (Hexokinase-3 (HK3, Homo sapiens, UniProt P52790, E254A/R267A); substrate inhibition; mutant E254A/R267A, partial substrate inhibition model, with: ATP 20 mM): 2900 ± 100 µM

CN1CC2c3ccccc3Oc3ccc(Cl)cc3C2C1 (centres unmarked)
EC50 (5-hydroxytryptamine receptor 1A (HTR1A, Homo sapiens, UniProt P08908, A222V); agonist): 0.0092 µM

COc1c(O)c(C)cc2c1C(=O)c1c(O)cccc1C2=O
cell viability (HepaRG co-cultured with HK-2; MTT; 33.33 µM, 24 h; reference: untreated control): 91 ± 13.7%

CS(=O)(=O)c1ccc(C=O)cc1
EC50 (YWHAG/RELA phospho-Ser45 p65 peptide; ternary complex formation, stabilizer, fluorescence anisotropy): > 1000 µM

Nc1ncnc2c1ncn2[C@@H]1O[C@H](CSCC[C@H](N)C(=O)O)[C@@H](O)[C@H]1O
Ki (Phenylethanolamine N-methyltransferase (PNMT, Homo sapiens, UniProt P11086); inhibitor, coupled enzyme): 15.4 ± 5.2 µM

CCCCCCCC(=O)c1cc(OC)c(OC)c(OC)c1CC(=O)OCC
metabolic activity (COS-7; WST-8; 10 µM, 24 h, 0.1% DMSO, unit not given; reference: vehicle control): 1.01 ± 0.02

C[C@H](CCC(=O)O)[C@H]1CC[C@H]2[C@@H]3CC[C@@H]4C[C@H](O)CC[C@]4(C)[C@H]3CC[C@]12C
Kd (Nuclear receptor subfamily 2 group C member 2 ligand-binding domain; SPR imaging): 20.7 nM

N#CC1CCN(C(=O)c2ccc(C=O)cc2)CC1
EC50 (YWHAG/RELA phospho-Ser45 p65 peptide; ternary complex formation, stabilizer, fluorescence anisotropy): > 1000 µM

Nc1nc(O)c2ncn(COC(CO)CO)c2n1
Kd (Nuclear receptor subfamily 2 group C member 2 ligand-binding domain; SPR imaging): 1.71 nM

COc1ccc(-c2nn(-c3ccccc3)cc2C2C(C(C)=O)=C(C)n3c(=O)c4ccccc4c(=O)n32)cc1 (centres unmarked)
Ki (Alpha-glucosidase MAL12 (MAL12, Saccharomyces cerevisiae S288c, UniProt P53341); Lineweaver-Burk secondary plot): 34.8 µM

O=Cc1ccc([N+](=O)[O-])c(OC(=O)c2cccc(F)c2F)c1
EC50 (YWHAG/RELA phospho-Ser45 p65 peptide; ternary complex formation, stabilizer, fluorescence anisotropy): > 1000 µM

Cc1ncc([N+](=O)[O-])n1CCO
Kd (Nuclear receptor subfamily 2 group C member 2 ligand-binding domain; SPR imaging): 2.11 nM

CCN(CC)Cc1cc(Nc2ccnc3cc(Cl)ccc23)ccc1O
necrosis (COS-7; 100 µM, 24 h, 0.1% DMSO, unit not given; reference: control): 0.5 ± 0.04

COc1ccc2cc(CCC(C)=O)ccc2c1
Kd (Nuclear receptor subfamily 2 group C member 2 ligand-binding domain; SPR imaging): 0.466 nM

CCCCC[C@H](O)/C=C/[C@H]1[C@H](O)CC(=O)[C@@H]1C/C=C\CCCC(=O)O
EC50 (Prostaglandin E2 receptor EP1 subtype (PTGER1, Homo sapiens, UniProt P34995, R66A); IP1 accumulation, agonist; AD293; EP1 R66A mutant): 0.0014 µM

CCCCN1CCCCC1C(=O)Nc1c(C)cccc1C (centres unmarked)
Kd (Nuclear receptor subfamily 2 group C member 2 ligand-binding domain; SPR imaging): 0.0734 nM

CC(=O)Nc1ccc(C=O)cc1
EC50 (YWHAG/RELA phospho-Ser45 p65 peptide; ternary complex formation, stabilizer, fluorescence anisotropy): > 1000 µM

O=C(O)c1cc(/N=N/c2ccc(S(=O)(=O)Nc3ccccn3)cc2)ccc1O
Kd (Nuclear receptor subfamily 2 group C member 2 ligand-binding domain; SPR imaging): 0.0152 nM

COc1c(O)cc2c(c1O)C(=O)c1c(cc(C)c(O)c1OC)C2=O
cell viability (HepaRG co-cultured with HK-2; MTT; 66.67 µM, 24 h; reference: untreated control): 92.7 ± 11%

A few entries again:
Cc1cc(C(=O)Oc2cc(C=O)ccc2[N+](=O)[O-])c(C)o1
EC50 (YWHAG/RELA phospho-Ser45 p65 peptide; ternary complex formation, stabilizer, fluorescence anisotropy): > 1000 µM

Nc1ncnc2c1ncn2[C@@H]1O[C@H](CSCC[C@H](N)C(=O)O)[C@@H](O)[C@H]1O
Ki (Phenylethanolamine N-methyltransferase (PNMT, Homo sapiens, UniProt P11086); inhibitor, coupled enzyme): 15.4 ± 5.2 µM
